Measured values gathered from unrelated publications.
Parts stem from different laboratories: compare values within a part only.
UniProt Q9FGV1, sequence (whole entry, looked up): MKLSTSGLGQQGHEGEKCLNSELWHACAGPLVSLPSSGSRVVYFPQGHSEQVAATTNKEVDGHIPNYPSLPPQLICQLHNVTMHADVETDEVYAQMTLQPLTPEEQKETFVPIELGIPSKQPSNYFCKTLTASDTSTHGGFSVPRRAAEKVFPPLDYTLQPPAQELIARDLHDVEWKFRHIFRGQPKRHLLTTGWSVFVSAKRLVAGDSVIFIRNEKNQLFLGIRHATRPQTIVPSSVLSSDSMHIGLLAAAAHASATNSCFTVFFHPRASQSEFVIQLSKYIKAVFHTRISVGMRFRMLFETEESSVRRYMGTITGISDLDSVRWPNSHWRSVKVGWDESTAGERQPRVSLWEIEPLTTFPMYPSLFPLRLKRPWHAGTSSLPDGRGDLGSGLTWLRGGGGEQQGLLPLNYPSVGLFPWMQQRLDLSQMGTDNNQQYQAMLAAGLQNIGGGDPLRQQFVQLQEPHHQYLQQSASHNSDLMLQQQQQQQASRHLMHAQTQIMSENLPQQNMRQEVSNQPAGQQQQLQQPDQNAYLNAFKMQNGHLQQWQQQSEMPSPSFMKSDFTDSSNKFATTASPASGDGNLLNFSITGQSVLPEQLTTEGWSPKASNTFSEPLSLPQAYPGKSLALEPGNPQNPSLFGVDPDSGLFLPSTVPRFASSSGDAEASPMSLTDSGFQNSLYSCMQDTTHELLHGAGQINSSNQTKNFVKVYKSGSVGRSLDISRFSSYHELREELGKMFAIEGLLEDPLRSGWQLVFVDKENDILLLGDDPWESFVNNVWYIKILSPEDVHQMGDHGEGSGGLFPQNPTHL
UniProt Q8H174, sequence (whole entry, looked up): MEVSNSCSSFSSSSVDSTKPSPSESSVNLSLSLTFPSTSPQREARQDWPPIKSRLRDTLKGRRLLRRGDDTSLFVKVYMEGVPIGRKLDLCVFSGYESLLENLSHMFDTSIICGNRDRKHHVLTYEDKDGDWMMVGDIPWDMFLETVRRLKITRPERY
UniProt Q8RYC6, sequence (whole entry, looked up): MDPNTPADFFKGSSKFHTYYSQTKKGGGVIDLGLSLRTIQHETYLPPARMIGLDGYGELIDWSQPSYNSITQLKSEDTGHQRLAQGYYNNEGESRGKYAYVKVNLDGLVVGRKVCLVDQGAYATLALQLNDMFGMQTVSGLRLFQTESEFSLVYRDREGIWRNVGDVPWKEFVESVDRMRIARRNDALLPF
UniProt Q9ZTX9, sequence (whole entry, looked up): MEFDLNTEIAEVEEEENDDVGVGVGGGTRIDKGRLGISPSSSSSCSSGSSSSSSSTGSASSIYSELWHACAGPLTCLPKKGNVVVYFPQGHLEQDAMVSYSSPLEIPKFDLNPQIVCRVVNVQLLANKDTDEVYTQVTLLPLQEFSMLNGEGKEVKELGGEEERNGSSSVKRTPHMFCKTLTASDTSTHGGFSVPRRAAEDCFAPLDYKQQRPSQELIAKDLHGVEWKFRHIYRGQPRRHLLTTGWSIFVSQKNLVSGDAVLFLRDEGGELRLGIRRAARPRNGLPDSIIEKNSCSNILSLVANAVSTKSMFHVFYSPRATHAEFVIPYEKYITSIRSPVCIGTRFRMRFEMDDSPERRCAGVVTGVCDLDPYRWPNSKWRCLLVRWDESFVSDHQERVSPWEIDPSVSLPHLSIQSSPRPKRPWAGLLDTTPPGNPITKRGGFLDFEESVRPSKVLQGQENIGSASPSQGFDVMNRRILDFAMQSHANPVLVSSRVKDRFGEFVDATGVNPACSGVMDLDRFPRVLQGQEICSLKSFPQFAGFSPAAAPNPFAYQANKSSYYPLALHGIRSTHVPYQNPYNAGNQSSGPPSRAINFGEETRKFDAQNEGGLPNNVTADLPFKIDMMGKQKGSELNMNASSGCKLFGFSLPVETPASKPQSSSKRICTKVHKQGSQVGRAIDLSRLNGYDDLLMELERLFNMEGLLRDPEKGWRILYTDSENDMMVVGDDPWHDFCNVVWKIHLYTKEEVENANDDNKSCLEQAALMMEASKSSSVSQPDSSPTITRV
UniProt Q9C5X0, sequence (whole entry, looked up): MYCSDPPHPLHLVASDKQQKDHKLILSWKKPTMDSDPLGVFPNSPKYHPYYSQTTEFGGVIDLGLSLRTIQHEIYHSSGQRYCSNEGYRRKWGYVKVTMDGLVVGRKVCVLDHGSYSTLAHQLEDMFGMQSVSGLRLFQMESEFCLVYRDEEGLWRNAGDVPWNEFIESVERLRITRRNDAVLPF
UniProt Q9FKM7, sequence (whole entry, looked up): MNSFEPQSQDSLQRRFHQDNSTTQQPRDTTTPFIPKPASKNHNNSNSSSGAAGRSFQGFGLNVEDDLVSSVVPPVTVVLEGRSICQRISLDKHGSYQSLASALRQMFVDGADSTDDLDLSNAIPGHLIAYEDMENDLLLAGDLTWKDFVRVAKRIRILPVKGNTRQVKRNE
UniProt Q9M1R4, sequence (whole entry, looked up): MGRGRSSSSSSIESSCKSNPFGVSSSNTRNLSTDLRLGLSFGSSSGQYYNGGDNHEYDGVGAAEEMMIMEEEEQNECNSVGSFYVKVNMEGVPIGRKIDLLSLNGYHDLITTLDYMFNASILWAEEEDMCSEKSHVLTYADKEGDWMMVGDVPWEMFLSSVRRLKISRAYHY
UniProt Q9XED8, sequence (whole entry, looked up): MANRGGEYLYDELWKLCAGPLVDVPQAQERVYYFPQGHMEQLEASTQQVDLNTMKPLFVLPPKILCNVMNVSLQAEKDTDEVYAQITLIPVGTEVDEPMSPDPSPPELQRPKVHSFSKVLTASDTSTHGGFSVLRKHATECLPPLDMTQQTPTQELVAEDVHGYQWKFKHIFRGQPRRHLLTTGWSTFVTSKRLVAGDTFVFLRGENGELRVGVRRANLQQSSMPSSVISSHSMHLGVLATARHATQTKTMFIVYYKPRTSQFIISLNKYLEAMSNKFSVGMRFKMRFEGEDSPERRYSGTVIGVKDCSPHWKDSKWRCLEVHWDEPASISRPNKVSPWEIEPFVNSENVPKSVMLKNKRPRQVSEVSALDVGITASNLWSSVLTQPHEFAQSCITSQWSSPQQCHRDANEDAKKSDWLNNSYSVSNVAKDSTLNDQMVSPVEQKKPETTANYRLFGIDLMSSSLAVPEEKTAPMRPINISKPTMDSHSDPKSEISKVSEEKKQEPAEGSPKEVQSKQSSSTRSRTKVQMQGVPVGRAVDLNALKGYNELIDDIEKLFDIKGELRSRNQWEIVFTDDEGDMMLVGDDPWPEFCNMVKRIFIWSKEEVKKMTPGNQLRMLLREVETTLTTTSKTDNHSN

Study 1
Substance: IAA29 (Arabidopsis thaliana, UniProt Q93WC4)
UniProt Q93WC4, sequence (whole entry, looked up): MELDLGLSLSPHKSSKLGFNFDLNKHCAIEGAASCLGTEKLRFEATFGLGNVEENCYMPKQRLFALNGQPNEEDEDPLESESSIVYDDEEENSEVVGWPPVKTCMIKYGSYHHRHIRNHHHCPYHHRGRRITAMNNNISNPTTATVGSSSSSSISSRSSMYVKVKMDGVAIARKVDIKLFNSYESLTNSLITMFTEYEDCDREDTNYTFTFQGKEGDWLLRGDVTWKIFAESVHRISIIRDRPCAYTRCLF
Method: two-hybrid
Direction: higher = firmer interaction
partner | setting | scale | positive tests
IAA33 (Arabidopsis thaliana, UniProt Q9FKM7) |  | reference: out of 4 tests | 2
IAA34 (Arabidopsis thaliana, UniProt Q9C5X0) |  | reference: out of 4 tests | 2
ARF4 660-788 (Arabidopsis thaliana, UniProt Q9ZTX9) |  | reference: out of 4 tests | 0
ARF9 519-638 (Arabidopsis thaliana, UniProt Q9XED8) | weak activation fusion | reference: out of 4 tests | 2
IAA31 (Arabidopsis thaliana, UniProt Q8H174) |  | reference: out of 2 tests | 0
IAA32 (Arabidopsis thaliana, UniProt Q8RYC6) |  | reference: out of 4 tests | 0
ARF8 699-811 (Arabidopsis thaliana, UniProt Q9FGV1) |  | reference: out of 4 tests | 2
IAA30 (Arabidopsis thaliana, UniProt Q9M1R4) | weak activation fusion | reference: out of 4 tests | 1

Study 2
Target: Prothrombin, mature alpha-thrombin (F2, Homo sapiens, UniProt P00734)
Method: aptamer microarray, sandwich
Molecule type: DNA with 2'F-ANA
Medium: in vitro
Tested at: 200 nM
Setting: whole 15-mer aptamer, many near background
With: Cy3 exosite-II aptamer, 400 nM
Direction: higher = stronger binding
Strand: GGTTGGTGTGGTTGG
Modification | mean fluorescence intensity [a.u.]
2'F-ANA at 3 4 5 6 8 9 10 11 13 15 | 50.9
2'F-ANA at 7 11 14 15 | 216
2'F-ANA at 3 4 5 10 12 13 | 53.5
2'F-ANA at 1 2 3 4 5 7 11 14 | 44.1
2'F-ANA at 3 5 8 9 10 11 | 60.5
2'F-ANA at 5 6 7 10 11 12 | 67.9
2'F-ANA at 3 4 5 7 8 9 10 | 52.7
2'F-ANA at 3 5 9 11 12 14 | 60.9

Study 3
Target: Histone acetyltransferase KAT6A, winged helix 2, GST fusion (KAT6A, Homo sapiens, UniProt Q92794, residues 85-181)
Method: protein binding microarray
Molecule type: double-stranded DNA, one strand shown
Medium: in vitro
Tested at: not given
Setting: 8-mer, flanks averaged, mean of 2 arrays, mostly near background
Reference: not given
Direction: higher = stronger binding
Residues (chain): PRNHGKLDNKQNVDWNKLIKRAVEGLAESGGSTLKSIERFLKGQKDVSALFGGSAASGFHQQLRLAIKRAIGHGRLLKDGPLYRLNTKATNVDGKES
Strand | E-score
AATCAATC | -0.00471
ACTAGCTA | 0.092
AGGCTCAC | -0.0768
ATAAAAGA | -0.0864
AAGTTTCC | 0.0481
CCGGTCGC | 0.202
AGGGAGTC | -0.0155
ACACGAAA | 0.107

Further values, each from its own experiment
Molecule | target | assay | test system | setting | measurement | result
TPREAPYEL | HLA class I histocompatibility antigen, A alpha chain, allele A*80:01 (Homo sapiens, UniProt P04439) | peptide-MHC binding | peptide | concentration not given | binding | inactive

Some of these lines once more (study 2):
Modification | mean fluorescence intensity [a.u.]
2'F-ANA at 3 4 5 6 8 9 10 11 13 15 | 50.9
2'F-ANA at 3 4 5 7 8 9 10 | 52.7
